Assay results from different studies.
Each numbered part is a random draw from the data of one study; scales do not carry over between parts. Values joined by “and” are separate records of one study, mostly repeats; a detail may differ.
UniProt Q15349, sequence (whole entry, looked up): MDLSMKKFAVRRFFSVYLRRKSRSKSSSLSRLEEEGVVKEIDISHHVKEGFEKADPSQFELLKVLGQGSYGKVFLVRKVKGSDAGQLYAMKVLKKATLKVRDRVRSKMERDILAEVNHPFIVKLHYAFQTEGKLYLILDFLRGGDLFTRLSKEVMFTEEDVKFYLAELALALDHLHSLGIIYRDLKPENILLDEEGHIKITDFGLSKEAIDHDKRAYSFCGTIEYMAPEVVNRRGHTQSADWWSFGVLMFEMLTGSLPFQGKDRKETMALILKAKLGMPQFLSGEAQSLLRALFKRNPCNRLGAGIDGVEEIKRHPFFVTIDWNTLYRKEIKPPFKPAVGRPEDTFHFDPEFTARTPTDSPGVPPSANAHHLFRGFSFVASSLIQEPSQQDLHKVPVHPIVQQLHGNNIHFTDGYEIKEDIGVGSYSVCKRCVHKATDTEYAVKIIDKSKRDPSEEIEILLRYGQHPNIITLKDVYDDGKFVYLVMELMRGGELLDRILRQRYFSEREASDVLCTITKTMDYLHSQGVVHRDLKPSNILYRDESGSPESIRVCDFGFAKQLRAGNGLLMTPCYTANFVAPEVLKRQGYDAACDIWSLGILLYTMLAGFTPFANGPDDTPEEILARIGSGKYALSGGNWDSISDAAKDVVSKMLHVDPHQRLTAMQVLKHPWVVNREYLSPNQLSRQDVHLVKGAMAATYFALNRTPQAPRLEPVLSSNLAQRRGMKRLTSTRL
UniProt P49759, sequence (whole entry, looked up): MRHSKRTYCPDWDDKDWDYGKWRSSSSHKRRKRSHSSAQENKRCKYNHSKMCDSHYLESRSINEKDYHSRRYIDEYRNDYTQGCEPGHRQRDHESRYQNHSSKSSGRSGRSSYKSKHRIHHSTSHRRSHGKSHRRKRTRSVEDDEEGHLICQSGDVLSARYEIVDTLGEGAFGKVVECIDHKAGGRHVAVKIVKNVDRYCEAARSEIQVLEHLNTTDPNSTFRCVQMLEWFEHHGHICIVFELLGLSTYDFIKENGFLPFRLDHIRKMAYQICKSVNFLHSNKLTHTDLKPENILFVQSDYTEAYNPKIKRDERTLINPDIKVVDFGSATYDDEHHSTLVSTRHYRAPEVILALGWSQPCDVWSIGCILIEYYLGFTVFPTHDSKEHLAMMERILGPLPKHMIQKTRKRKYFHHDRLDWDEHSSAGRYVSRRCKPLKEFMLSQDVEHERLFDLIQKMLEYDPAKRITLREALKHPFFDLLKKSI
UniProt Q13153, sequence (whole entry, looked up): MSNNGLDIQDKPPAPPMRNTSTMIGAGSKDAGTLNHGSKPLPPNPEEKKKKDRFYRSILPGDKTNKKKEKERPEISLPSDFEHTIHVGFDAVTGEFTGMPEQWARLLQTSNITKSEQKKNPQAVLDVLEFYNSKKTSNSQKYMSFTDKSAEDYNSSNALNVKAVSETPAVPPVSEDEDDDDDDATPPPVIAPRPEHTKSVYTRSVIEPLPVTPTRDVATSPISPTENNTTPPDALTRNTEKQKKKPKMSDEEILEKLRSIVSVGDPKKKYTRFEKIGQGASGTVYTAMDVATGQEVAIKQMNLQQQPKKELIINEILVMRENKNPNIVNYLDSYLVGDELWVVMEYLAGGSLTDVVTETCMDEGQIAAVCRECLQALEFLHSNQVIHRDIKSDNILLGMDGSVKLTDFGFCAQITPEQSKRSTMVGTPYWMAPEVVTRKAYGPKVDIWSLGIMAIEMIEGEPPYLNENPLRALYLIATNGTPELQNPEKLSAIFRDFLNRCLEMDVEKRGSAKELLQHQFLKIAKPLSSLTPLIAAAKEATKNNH
UniProt P37023, sequence (whole entry, looked up): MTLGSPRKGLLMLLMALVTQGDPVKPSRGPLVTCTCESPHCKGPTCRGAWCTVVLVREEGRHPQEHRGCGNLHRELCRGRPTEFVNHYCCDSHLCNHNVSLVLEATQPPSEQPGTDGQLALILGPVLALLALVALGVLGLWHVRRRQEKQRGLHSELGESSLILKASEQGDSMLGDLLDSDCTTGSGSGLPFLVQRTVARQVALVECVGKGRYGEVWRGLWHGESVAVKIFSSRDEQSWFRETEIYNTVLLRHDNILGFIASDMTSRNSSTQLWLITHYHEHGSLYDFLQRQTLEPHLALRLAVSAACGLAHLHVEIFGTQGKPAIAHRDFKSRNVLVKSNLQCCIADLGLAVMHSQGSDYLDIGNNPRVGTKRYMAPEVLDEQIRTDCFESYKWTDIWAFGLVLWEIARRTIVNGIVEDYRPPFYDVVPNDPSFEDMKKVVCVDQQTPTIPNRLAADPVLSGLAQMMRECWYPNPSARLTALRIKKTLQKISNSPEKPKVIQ
UniProt Q9NYL2, sequence (whole entry, looked up): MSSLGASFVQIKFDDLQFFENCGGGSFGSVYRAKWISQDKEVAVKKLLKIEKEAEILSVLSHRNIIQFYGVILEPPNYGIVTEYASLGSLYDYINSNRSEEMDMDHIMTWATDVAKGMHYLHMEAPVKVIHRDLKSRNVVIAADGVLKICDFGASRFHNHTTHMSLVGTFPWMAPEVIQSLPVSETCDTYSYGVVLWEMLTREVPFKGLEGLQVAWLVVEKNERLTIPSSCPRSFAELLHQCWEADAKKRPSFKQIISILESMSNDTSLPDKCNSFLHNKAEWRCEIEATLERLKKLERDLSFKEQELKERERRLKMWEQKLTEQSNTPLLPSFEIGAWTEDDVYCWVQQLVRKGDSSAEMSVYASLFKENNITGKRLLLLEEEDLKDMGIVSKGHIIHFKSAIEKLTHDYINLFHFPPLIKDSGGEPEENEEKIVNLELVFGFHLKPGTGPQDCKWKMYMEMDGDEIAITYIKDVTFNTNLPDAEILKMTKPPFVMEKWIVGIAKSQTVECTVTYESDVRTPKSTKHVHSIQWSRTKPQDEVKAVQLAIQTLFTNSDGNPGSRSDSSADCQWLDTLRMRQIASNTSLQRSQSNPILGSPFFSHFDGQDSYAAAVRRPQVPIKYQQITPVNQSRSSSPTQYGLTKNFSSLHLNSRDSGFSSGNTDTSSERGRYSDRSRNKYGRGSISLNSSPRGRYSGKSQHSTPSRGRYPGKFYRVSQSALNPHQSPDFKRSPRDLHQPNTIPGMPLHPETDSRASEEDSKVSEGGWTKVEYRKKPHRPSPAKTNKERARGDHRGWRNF
UniProt P10721, sequence (whole entry, looked up): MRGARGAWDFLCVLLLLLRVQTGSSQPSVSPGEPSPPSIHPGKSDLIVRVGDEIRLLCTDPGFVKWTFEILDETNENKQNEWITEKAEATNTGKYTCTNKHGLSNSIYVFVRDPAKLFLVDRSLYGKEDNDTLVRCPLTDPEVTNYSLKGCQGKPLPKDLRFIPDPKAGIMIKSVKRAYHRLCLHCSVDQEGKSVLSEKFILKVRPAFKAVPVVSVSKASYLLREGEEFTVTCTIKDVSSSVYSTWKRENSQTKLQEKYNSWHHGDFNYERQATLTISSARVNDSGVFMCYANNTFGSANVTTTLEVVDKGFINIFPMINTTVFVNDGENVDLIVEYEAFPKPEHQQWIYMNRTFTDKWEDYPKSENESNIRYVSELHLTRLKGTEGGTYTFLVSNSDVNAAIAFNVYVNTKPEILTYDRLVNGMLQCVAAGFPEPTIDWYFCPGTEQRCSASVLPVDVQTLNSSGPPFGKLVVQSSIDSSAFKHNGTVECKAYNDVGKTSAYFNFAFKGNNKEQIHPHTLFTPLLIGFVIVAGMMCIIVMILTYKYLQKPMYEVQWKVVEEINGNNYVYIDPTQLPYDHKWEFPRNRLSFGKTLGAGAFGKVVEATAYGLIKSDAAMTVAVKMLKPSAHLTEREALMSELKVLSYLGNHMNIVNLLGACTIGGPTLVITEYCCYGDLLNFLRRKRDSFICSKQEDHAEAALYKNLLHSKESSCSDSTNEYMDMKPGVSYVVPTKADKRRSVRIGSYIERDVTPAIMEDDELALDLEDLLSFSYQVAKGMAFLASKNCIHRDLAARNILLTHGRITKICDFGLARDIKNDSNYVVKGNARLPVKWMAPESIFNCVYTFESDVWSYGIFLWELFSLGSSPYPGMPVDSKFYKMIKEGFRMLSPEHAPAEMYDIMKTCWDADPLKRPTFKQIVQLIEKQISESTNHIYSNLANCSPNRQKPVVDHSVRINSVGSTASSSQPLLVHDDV
UniProt Q9UQM7, sequence (whole entry, looked up): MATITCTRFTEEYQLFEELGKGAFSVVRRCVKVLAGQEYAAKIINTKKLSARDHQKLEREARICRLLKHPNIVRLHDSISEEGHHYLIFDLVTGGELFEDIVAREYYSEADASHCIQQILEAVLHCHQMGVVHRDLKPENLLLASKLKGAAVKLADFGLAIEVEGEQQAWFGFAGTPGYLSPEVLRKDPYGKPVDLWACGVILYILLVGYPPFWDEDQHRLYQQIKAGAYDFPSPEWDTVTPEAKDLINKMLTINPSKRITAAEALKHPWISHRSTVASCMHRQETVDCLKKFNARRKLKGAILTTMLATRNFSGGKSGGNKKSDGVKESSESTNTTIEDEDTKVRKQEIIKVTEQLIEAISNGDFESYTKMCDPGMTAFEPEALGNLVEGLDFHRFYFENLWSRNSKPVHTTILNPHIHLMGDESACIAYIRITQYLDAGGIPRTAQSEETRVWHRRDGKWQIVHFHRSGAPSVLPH
UniProt P49674, sequence (whole entry, looked up): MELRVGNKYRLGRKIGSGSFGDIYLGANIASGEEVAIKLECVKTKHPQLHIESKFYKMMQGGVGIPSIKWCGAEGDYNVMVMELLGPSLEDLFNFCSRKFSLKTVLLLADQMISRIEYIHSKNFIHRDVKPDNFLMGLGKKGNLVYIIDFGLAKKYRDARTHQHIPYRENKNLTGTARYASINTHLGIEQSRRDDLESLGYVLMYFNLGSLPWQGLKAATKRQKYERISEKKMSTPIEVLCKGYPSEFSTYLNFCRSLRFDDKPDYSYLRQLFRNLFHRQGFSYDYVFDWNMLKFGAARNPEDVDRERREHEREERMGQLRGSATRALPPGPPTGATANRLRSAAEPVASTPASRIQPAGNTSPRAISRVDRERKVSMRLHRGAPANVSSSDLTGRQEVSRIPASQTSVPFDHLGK

Set 1 — cell line: A-375; tested at: 100 µM; time: 36 h
| Compound | viability |
| --- | --- |
| CCN(CCO)CCCC(C)Nc1ccnc2cc(Cl)ccc12 (stereo not drawn) | -0.73% |
| CC(=O)Nc1cccc(-n2c(=O)n(C3CC3)c(=O)c3c(Nc4ccc(I)cc4F)n(C)c(=O)c(C)c32)c1 | 57.2% |
| C[C@@H]1C/C=C/C=C/C=C/C=C/[C@H](O[C@@H]2O[C@H](C)[C@@H](O)[C@H](N)[C@@H]2O)C[C@@H]2O[C@](O)(C[C@@H](O)C[C@H]3O[C@@H]3/C=C/C(=O)O1)C[C@H](O)[C@H]2C(=O)O | 118% |
| COc1cc2c(Oc3ccc4[nH]c(C)cc4c3F)ncnc2cc1OCCCN1CCCC1 | 1.14% |
| COc1cc(C(=O)N2CCOCC2)cc(OC)c1OC | 105% |
| COc1ccc2cccc(CCNC(C)=O)c2c1 | 82.3% |
| CCN(CC)CCNC(=O)c1c(C)[nH]c(/C=C2\C(=O)Nc3ccc(F)cc32)c1C | 0.835% and 6.13% |
| Clc1cccc(Cl)c1N=C1NCCN1 | 112% |
| CC[C@H](C)[C@H](N)C(=O)O | 114% |
| CC(=O)OCC[N+](C)(C)C | 121% |
| O=c1[nH]c(=O)n([C@H]2C[C@H](O)[C@@H](CO)O2)cc1C(F)(F)F | 28% |
| C[C@H]1[C@H](OC(=O)CCC(=O)O)O[C@@H]2O[C@@]3(C)CC[C@H]4[C@H](C)CC[C@@H]1[C@@]24OO3 | 34.4% |

Set 2 — method: competition with immobilised ligand; tested at: 1 µM
Compound: COc1ccc2c(c1)O[C@@H](c1ccc(OC)c(OC)c1)C[C@H]2NC(=O)C1(c2ccc3c(c2)OC(F)(F)O3)CC1
| target | effect on | remaining binding [%] |
| --- | --- | --- |
| Ribosomal protein S6 kinase alpha-2, C-terminal kinase domain (RPS6KA2, Homo sapiens, UniProt Q15349) | cell-free assay | 95 |
| LIM domain kinase 2 (LIMK2, Homo sapiens, UniProt P53671) | cell-free assay | 100 |
| PIM3 (Homo sapiens, UniProt Q86V86) | cell-free assay | 91 |
| PKMYT1 (Homo sapiens, UniProt Q99640) | cell-free assay | 90 |
| TIE1 (Homo sapiens, UniProt P35590) | cell-free assay | 100 |
| PRKX (Homo sapiens, UniProt P51817) | cell-free assay | 83 |
| Tyrosine-protein kinase ABL1, phosphorylated (ABL1, Homo sapiens, UniProt P00519, Q252H) | cell-free assay | 93 |
| CDK4 (Homo sapiens, UniProt P11802) | cell-free assay | 91 |
| CAMK2A (Homo sapiens, UniProt Q9UQM7) | cell-free assay | 98 |
| GRK2 (Homo sapiens, UniProt P25098) | cell-free assay | 100 |
| MAP4K3 (Homo sapiens, UniProt Q8IVH8) | cell-free assay | 90 |
| ACVR2A (Homo sapiens, UniProt P27037) | cell-free assay | 90 |
| MAP3K11 (Homo sapiens, UniProt Q16584) | cell-free assay | 100 |
| MAPKAPK2 (Homo sapiens, UniProt P49137) | cell-free assay | 100 |
| FLT3 (Homo sapiens, UniProt P36888, R834Q) | cell-free assay | 100 |
| GSK3B (Homo sapiens, UniProt P49841) | cell-free assay | 92 |
| FGFR3 (Homo sapiens, UniProt P22607, G697C) | cell-free assay | 95 |
| KIT (Homo sapiens, UniProt P10721) | cell-free assay | 86 |
| STK24 (Homo sapiens, UniProt Q9Y6E0) | cell-free assay | 96 |
| ACVRL1 (Homo sapiens, UniProt P37023) | binding | 97 |
| PHKG2 (Homo sapiens, UniProt P15735) | cell-free assay | 82 |
| STK11 (Homo sapiens, UniProt Q15831) | cell-free assay | 65 |

Set 3 — Structure (SMILES): COc1cc2ncnc(Nc3ccc(O)c(Br)c3)c2cc1OC; effect on: enzyme activity; action: inhibitor; tested at: 0.5 µM; reference: control
| target | remaining activity |
| --- | --- |
| CSNK1E (Homo sapiens, UniProt P49674) | 85.1% |
| TYRO3 (Homo sapiens, UniProt Q06418) | 78.6% |
| Cyclin-dependent kinase 2, with cyclin E (CDK2, Homo sapiens, UniProt P24941) | 95.7% |
| IGF1R (Homo sapiens, UniProt P08069) | 104% |
| JAK1 (Homo sapiens, UniProt P23458) | 81.5% |
| PAK1 (Homo sapiens, UniProt Q13153) | 94.1% |
| MAP3K20 (Homo sapiens, UniProt Q9NYL2) | 89% |
| CAMK1 (Homo sapiens, UniProt Q14012) | 103% |
| SIK2 (Homo sapiens, UniProt Q9H0K1) | 92.2% |
| PRKCQ (Homo sapiens, UniProt Q04759) | 92.8% |
| PRKCZ (Homo sapiens, UniProt Q05513) | 93% |
| TEC (Homo sapiens, UniProt P42680) | 108% |
| CLK2 (Homo sapiens, UniProt P49760) | 96.7% |
| PAK6 (Homo sapiens, UniProt Q9NQU5) | 92.8% |
| CAMKK1 (Homo sapiens, UniProt Q8N5S9) | 95.8% |
| SGK2 (Homo sapiens, UniProt Q9HBY8) | 95.1% |
| EPHA2 (Homo sapiens, UniProt P29317) | 80.6% |
| RPS6KA3 (Homo sapiens, UniProt P51812) | 69.4% |
| SRPK1 (Homo sapiens, UniProt Q96SB4) | 91.8% |
| CLK1 (Homo sapiens, UniProt P49759) | 77.2% |
| FLT1 (Homo sapiens, UniProt P17948) | 83.4% |
| CSNK1D (Homo sapiens, UniProt P48730) | 89.7% |

Single results of other studies
| Structure (SMILES) | method | host | dose | notes | endpoint | result |
| --- | --- | --- | --- | --- | --- | --- |
| CC(C)n1cnc(-c2ccc(F)cc2)c1-c1ncc(C(=O)Nc2ccc(N3CCN(C)CC3)cc2)[nH]1 | phase 2a trial | idiopathic pulmonary fibrosis patients | dose not given | grade 1, arms pooled | patients with carbon dioxide decreased | 1% |
